# Results of several laboratories.
# Each numbered part is a random draw from the data of one study; scales do not carry over between parts. Changes are numbered by the printed parent chain.

# Block 1 — method: DHFR PCA, dose-response; sample: yeast; notes: Hill fit, mean, not affinity; added: (+)-ABA, dose series; direction: lower = more sensitive
# Target: ABI1, truncated, D143A, DHFR fusion (Arabidopsis thaliana, UniProt P49597)
# Starting sequence: PYL1, truncated, DHFR fusion (Arabidopsis thaliana, UniProt Q8VZS8); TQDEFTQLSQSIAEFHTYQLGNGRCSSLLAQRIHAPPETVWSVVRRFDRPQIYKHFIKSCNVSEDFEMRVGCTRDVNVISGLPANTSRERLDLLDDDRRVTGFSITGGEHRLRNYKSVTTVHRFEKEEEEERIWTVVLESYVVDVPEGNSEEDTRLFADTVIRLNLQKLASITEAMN
Change,ABA EC50 [µM]
F56H,194
L156F,3.55
E147A,2.76
A175V,3.6
S26F,8.36
R32E,3.55
V136S,335
Q10C,3.12
T173Y,118

# Block 2 — method: protein binding microarray; form: double-stranded DNA, one strand shown; sample: in vitro; concentration: not given; reference: not given; direction: higher = stronger binding
# Target: Histone acetyltransferase KAT6A, winged helix 1, GST fusion (KAT6A, Homo sapiens, UniProt Q92794, residues 1-85)
# Notes: 8-mer, flanks averaged, mean of 2 arrays, mostly near background
# Construct (chain): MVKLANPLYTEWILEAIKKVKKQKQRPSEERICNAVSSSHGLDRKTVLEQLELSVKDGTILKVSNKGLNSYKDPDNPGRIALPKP
Strand,E-score
ACCAAGTG,-0.168
ACCAACCT,-0.105
GATTATCC,0.0124
AGGCTGTG,-0.222
CTGCCATA,0.0797
CACTGGTC,-0.108
GAAAGGAC,-0.0536
AAAGCATA,-0.0228
ACGAAGGA,-0.131
TCACCGGA,-0.0195
CGGGTGGC,0.283
CAGCGCCC,0.113
ACAGAGCC,0.112
CAACGAGA,-0.205
ACACGAGG,-0.125
CCACATCG,0.112
AAAAAAAG,-0.0557
CCGCATCC,0.26
CAAGGTGA,-0.169
CAGTGGGA,-0.215
CACCAATG,-0.0893
AAAAGGAC,-0.162
GCCAGGGA,-0.184

# Block 3 — method: RNA Bind-n-Seq; form: RNA; sample: in vitro; concentration: 200 nM; notes: whole 134-nt RNA, ends assumed; added: 150 mM KCl; reference: input library; direction: higher = stronger binding
# Target: Ras GTPase-activating protein-binding protein 1, full length (G3BP1, Homo sapiens, UniProt Q13283)
# Chain of UniProt Q13283 (whole entry, looked up): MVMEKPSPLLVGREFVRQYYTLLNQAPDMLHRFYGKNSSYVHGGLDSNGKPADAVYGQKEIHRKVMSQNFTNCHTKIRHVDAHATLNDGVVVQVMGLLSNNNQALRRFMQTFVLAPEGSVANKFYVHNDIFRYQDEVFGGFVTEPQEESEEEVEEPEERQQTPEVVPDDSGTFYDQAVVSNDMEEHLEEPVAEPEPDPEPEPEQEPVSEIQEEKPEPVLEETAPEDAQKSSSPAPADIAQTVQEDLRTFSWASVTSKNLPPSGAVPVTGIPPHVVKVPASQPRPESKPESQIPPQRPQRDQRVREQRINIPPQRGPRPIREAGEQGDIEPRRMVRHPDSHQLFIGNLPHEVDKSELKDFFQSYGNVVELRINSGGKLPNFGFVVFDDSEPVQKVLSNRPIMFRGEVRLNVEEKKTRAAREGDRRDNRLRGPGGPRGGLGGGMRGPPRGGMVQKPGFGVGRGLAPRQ
# Constant ends, left off below: GGGAGUUCUACAGUCCGACGAUC … UGGAAUUCUCGGGUGUCAAGG
Strand,log2 enrichment
CUGUGCUACACAUCGUAUGUACCGAAUCGGGGUUUUUUUGGGGAAAAAGGGGAAAAAGGGGAAAGUAUUAUGUUACGCCGUUCGGAUCUG,-0.221
CCUGUGCUACACAUCGUAUGUACCGAAUCGGGGUUUUUGGGGUUUUUGGGGUUUUUGGGGAAAGUAUUAUGUUACGCCGUUCGGAUCUGC,0.202
UGGGAGGUGGAUUUUGUUUAUUUUUUUAGCUCCUUUCCAGGGGUGGGAAUUUUUUUUUAAUAUGUGUCAUGAAUAAAGUUGUUUUUGAAA,-0.0705
GUCCUGUGCUACACAUCGUAUGUACCGAAUCAAACCCCCAAACCCCCCCAAACCCAAAAAAGUAUUAUGUUACGCCGUUCGGAUCUGCAC,-0.313
CUGUGCUACACAUCGUAUGUACCGAAUCGGGGUUUUUUUGGGGUUUUUUUGGGGAAAGGGGAAAGUAUUAUGUUACGCCGUUCGGAUCUG,-0.168
AAAAUGCAGGUGGGCAUCUUUGGGAAGUGGGGCAAGGGGGGGAUAGGGAGGGGGGUAACACUUUGGGAACAGGUGGUCCCAGGUCGUUUC,1.33
GUCCUGUGCUACACAUCGUAUGUACCGAAUCGGGAAAGGGAAAAAAAGGGUUUUUGGGAAAGUAUUAUGUUACGCCGUUCGGAUCUGCAC,-0.479
CAAGUCCUGUGCUACACAUCGUAUGUACCGAAUCGGUUUGGUUUGGUUUUUUUGGAAAGUAUUAUGUUACGCCGUUCGGAUCUGCACUUC,-0.729
UUGAGAUUGGGUGGAUUCCUAUCAUCUGGAAUUCUGACUCCUCGGGUCUCCUUCUCUAGGUAGCCCAGCAGCAGUGAAGAUGCAGACUGA,-1.35

# Block 4 — method: RNA Bind-n-Seq; form: RNA; sample: in vitro; concentration: not given; reference: input RNA pool; direction: higher = stronger binding
# Target: RING finger protein unkempt homolog, zinc fingers 1-6, GST-SBP tag (UNK, Homo sapiens, UniProt Q9C0B0, residues 30-357)
# Chain of UniProt Q9C0B0 (30-357, looked up): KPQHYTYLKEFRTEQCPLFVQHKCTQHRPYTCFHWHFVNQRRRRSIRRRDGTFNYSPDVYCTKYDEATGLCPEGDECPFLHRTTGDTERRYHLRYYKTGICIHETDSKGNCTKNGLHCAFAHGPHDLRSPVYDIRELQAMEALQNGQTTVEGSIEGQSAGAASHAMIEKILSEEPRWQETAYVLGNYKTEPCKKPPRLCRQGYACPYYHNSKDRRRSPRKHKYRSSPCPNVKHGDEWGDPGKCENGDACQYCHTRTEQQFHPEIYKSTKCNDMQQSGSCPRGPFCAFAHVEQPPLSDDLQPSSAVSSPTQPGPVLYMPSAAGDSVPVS
# Notes: RNA with constant flanks, human and mouse sites, ends assumed
# Constant ends, left off below: GGGAGUUCUACAGUCCGACGAUC … CAACAGAGGAUUGAGCAUCA
Strand,bound/input enrichment [ratio]
AAGAUAAACUGUUCCUGAUGGGUAAUUGGGCUGGGUAGGCCUGAAGGCUUCACAGGUUAAUUUUUUGUUGUUGUUUUGGAAGCCCUAUCCCAAACCCAAAGGGAAGACUUCACAUGGAAU,0.165
UGCUAACACUAGACAAAAAUCAACUGUAUUUGUAAAAAUUUACCUCAAACCAUUUAAUUUUAUAGUGUGAUUAAUCCCAGGGCAUUUGGUAUGAACCAAAGUGCAUUCCUUUUAUAUGUG,0.788
UUCCGCCACAUGAGAAACCAUGCUUAUGAGCCGCUCGCCAGCUUCCUGGACUUCAUAACUUAUAGCUACAUGAUUGACAACGUGAUCCUGCUAAUCACAGGCACACUGCACCAGCGUUCA,0.226
ACGUUGUAUGUAAACACAGCAGCUGAUAGUUUUGAAUUCAAAGCUCAUGUUGAAGGAGAUGGUGUAGUGGAAGGGAUUAUCCGUUAUCAUCCAUUCUUAUAUGAUAGAGAAACUUACCCU,0.241
CCAUCAGCUUCUGAAGUUCCCGAUAAUAGGGCAUCUGAAGCUUCUCAGGGAUUUCGAUUUCUUAGGCGAAGAUGGGGUUUGUCAUCUCUUAGCCACAAUCAUAGCUCUGAGUCAGAUUCA,0.195
UCAGAACACAAAAUCUUAUUUCUUGGAGCAGGAGAAGCUGCACUUGGAAUUGCCAAUCUCAUAGUUCUAUCAAUGGUGGAAAGUGGUCUCUCAGAAGAGGAGGCGCAGAGAAAGAUCUGG,0.339
GAUCUGCAGGCAUAUCUCACAGAUUUCCUCUGCCAGUUUGCUCAGCAGCCCUGCUACAUAAUGUUUUCAGGCCACCUUAAUGACAAUGAGAGGCGAGUUCUACAGACCAUCGGCAUCUAA,0.12
UAACUCUAAAAGGGAGGUGCUUGGGAUUAAGGUGACAGUCCACUUGAUCCUUUUCUUUGUUUUAGUGUGAAUUUCAGCAGCUCCAUCUGUCUUCAUGAUUGUACUUGAGCAGUAUUAGCU,0.243

# Block 5 — target: CCNB1, cyclin fold, Cln2 fusion (human); method: yeast growth competition, sequencing; sample: yeast; notes: weak parent motif; reference: not given; direction: higher = stronger binding
# Starting sequence: RBL1 docking peptide (human); GSAKRRLFGEDPP
Change,normalised enrichment score
GSAFRRLFGEDPP [K4F],1.17
GSAKRRLFGEDKP [P12K],0.98
GSAKRRLFGECPP [D11C],0.791
GSAKRRLFGEDPQ [P13Q],0.208
GSAKRRYFGEDPP [L7Y],0.198
GSAHRRLFGEDPP [K4H],0.748
GSARRRLFGEDPP [K4R],0.328
GSAKRRAFGEDPP [L7A],0.393
GGAKRRLFGEDPP [S2G],0.734
GMAKRRLFGEDPP [S2M],0.58
GSAKRRLFGENPP [D11N],1.17
GSAIRRLFGEDPP [K4I],1.06
GSAKRHLFGEDPP [R6H],0.356
GSAKRRLFGEDRP [P12R],0.764
GSAKRRLFGEDTP [P12T],0.847
GSAKRRLFGEDLP [P12L],-0.511
YSAKRRLFGEDPP [G1Y],2.13
GSAKRRLFGEDPV [P13V],1.2
GSAKRRLFGEDPG [P13G],-0.141
GSAKRRLEGEDPP [F8E],-0.281
GSAKRRLFGCDPP [E10C],0.418
GSAKRRLFGEDPY [P13Y],0.0591
GSAKRRLFGEDPE [P13E],-0.122
GSAKRRLFGVDPP [E10V],0.266
GSAKRRGFGEDPP [L7G],0.457

# Some of these lines once more (block 4):
Strand,bound/input enrichment [ratio]
AAGAUAAACUGUUCCUGAUGGGUAAUUGGGCUGGGUAGGCCUGAAGGCUUCACAGGUUAAUUUUUUGUUGUUGUUUUGGAAGCCCUAUCCCAAACCCAAAGGGAAGACUUCACAUGGAAU,0.165
UGCUAACACUAGACAAAAAUCAACUGUAUUUGUAAAAAUUUACCUCAAACCAUUUAAUUUUAUAGUGUGAUUAAUCCCAGGGCAUUUGGUAUGAACCAAAGUGCAUUCCUUUUAUAUGUG,0.788
UUCCGCCACAUGAGAAACCAUGCUUAUGAGCCGCUCGCCAGCUUCCUGGACUUCAUAACUUAUAGCUACAUGAUUGACAACGUGAUCCUGCUAAUCACAGGCACACUGCACCAGCGUUCA,0.226
ACGUUGUAUGUAAACACAGCAGCUGAUAGUUUUGAAUUCAAAGCUCAUGUUGAAGGAGAUGGUGUAGUGGAAGGGAUUAUCCGUUAUCAUCCAUUCUUAUAUGAUAGAGAAACUUACCCU,0.241
CCAUCAGCUUCUGAAGUUCCCGAUAAUAGGGCAUCUGAAGCUUCUCAGGGAUUUCGAUUUCUUAGGCGAAGAUGGGGUUUGUCAUCUCUUAGCCACAAUCAUAGCUCUGAGUCAGAUUCA,0.195
UCAGAACACAAAAUCUUAUUUCUUGGAGCAGGAGAAGCUGCACUUGGAAUUGCCAAUCUCAUAGUUCUAUCAAUGGUGGAAAGUGGUCUCUCAGAAGAGGAGGCGCAGAGAAAGAUCUGG,0.339
GAUCUGCAGGCAUAUCUCACAGAUUUCCUCUGCCAGUUUGCUCAGCAGCCCUGCUACAUAAUGUUUUCAGGCCACCUUAAUGACAAUGAGAGGCGAGUUCUACAGACCAUCGGCAUCUAA,0.12
UAACUCUAAAAGGGAGGUGCUUGGGAUUAAGGUGACAGUCCACUUGAUCCUUUUCUUUGUUUUAGUGUGAAUUUCAGCAGCUCCAUCUGUCUUCAUGAUUGUACUUGAGCAGUAUUAGCU,0.243
